Measurements of several laboratories.
Parts stem from different laboratories: compare values within a part only. Positions count from the first letter of the parent shown.

Sample 1 — target: NFIL3, bZIP domain (human); technique: DHFR protein complementation; matrix: yeast; reference: wild-type JUN-FOS pair; direction: higher = stronger binding; measurement: binding fitness
Notes: single substitutions, most at no-binding floor
Starting sequence: JUN, bZIP domain (human); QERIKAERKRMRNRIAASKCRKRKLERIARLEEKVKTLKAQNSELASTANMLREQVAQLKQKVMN; partner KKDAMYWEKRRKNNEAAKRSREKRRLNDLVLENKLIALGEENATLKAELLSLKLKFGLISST
Q41R: -1.53 natural log
L31P: -1.47 natural log
A57V: -1.26 natural log
S47C: -1.54 natural log
T37Y: -1.3 natural log
T48V: -1.51 natural log
A29W: -1.36 natural log
N42A: -1.54 natural log
A49H: -1.52 natural log
V56A: -1.47 natural log
T37S: -1.39 natural log
M51R: -1.45 natural log
E44Y: -1.53 natural log
R53W: -1.57 natural log

Sample 2 — target: CCNB3, cyclin fold, Cln2 fusion (human); technique: yeast growth competition, sequencing; matrix: yeast; notes: weak parent motif; reference: not given; direction: higher = stronger binding; measurement: normalised enrichment score
Starting sequence: SAMHD1 docking peptide (human); ASKSRVQLFKDDP; partner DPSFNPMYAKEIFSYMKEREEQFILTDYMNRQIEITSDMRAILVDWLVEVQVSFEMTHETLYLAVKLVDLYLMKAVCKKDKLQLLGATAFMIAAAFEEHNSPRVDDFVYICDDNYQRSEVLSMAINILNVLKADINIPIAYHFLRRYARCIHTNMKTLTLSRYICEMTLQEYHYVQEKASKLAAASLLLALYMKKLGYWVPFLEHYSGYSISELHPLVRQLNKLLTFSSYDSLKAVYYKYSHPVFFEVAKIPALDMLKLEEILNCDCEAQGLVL
ASISRVQLFKDDP [K3I]: 0.0887
ASKSRVQLFKDYP [D12Y]: 0.626
ASKPRVQLFKDDP [S4P]: -0.0186
APKSRVQLFKDDP [S2P]: -0.128
ASASRVQLFKDDP [K3A]: 0.0508
AEKSRVQLFKDDP [S2E]: 0.0963
ASKCRVQLFKDDP [S4C]: 0.768
ATKSRVQLFKDDP [S2T]: -0.0197
ASKGRVQLFKDDP [S4G]: -0.0876
ASRSRVQLFKDDP [K3R]: 0.0864
ASKSRVQLFKDWP [D12W]: -0.135
ASKSRVQLFKDSP [D12S]: -0.0141
ASKSRVQLFNDDP [K10N]: 0.0728
ASKSRVQLFKDHP [D12H]: 0.17
ASKSRVSLFKDDP [Q7S]: -0.195
AVKSRVQLFKDDP [S2V]: 0.0676
ASKSRVQLFYDDP [K10Y]: -0.35
ASKSRVQMFKDDP [L8M]: -0.00473
ASESRVQLFKDDP [K3E]: 0.0318
ASCSRVQLFKDDP [K3C]: 0.0442
ASMSRVQLFKDDP [K3M]: -0.0242
AYKSRVQLFKDDP [S2Y]: 0.0822
ASKSGVQLFKDDP [R5G]: -0.311
ASKSRVHLFKDDP [Q7H]: 0.164

Sample 3 — target: UBE2L6 UBC core domain (UniProt O14933); technique: yeast two-hybrid; matrix: yeast; notes: mostly zero background; reference: not given; direction: higher = stronger interaction; measurement: lacZ reporter activity
B1: RNF133 RING domain (UniProt Q8WVZ7); chain DEEINPNGDSCVICFERYKPNDIVRILTCKHFFHKNCIDPWILPHGTCPICKCDILKVLGIQ
B2: RBCK1 RING domain (UniProt Q9BYM8); chain SLVLNTEPAECPVCYSVLAPGEAVVLRECLHTFCRECLQGTIRNSQEAEVSCPFIDNTYSCSGKLLEREIK
B3: SH3RF1 RING domain (UniProt Q7Z6J0); chain DESALLDLLECPVCLERLDASAKVLPCQHTFCKRCLLGIVGSRNELRCPECRTLVGSGVEEL
B4: UBOX5 RING domain (UniProt O94941); chain EQPGSILGPECASCKRVFSPYFKKEPVYQLPCGHLLCRPCLGEKQRSLPMTCTACQRPVASQDVLR
B5: RNF19A RING domain (UniProt Q9NV58); chain ISKQIGDFIECPLCLLRHSKDRFPDIMTCHHRSCVDCLRQYLRIEISESRVNISCPECTERFNPHDIR
B6: DTX2 RING domain (UniProt Q86UW9); chain EELKVPPDEDCIICMEKLSTASGYSDVTDSKAIGSLAVGHLTKCSHAFHLLCLLAMYCNGNKDGSLQCPSCKTIYGEKTGTQ
B7: SYTL4 RING domain (UniProt Q96C24); chain RGSQHYSDRTCARCQESLGRLSPKTNTCRGCNHLVCRDCRIQESNGTWRCKVCAKEIELKKAT
Target sequence (chain): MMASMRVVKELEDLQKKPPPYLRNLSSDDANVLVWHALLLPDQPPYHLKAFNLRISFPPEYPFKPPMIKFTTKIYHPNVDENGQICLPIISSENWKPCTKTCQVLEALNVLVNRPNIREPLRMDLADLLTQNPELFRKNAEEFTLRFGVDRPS
YQNEVDDDLVCHICLQPLLQPLDTPCGHTFCYKCLRNFLQEKDFCPLDRKRLHFKLCKK (LNX2 RING domain (UniProt Q8N448)): 0
B1 (RNF133 RING domain): 0
GSRLQEINDVCAICYHEFTTSARITPCNHYFHALCLRKWLYIQDTCPMCHQKVYIEDDIK (RNF139 RING domain (UniProt Q8WU17)): 0
B2 (RBCK1 RING domain): 0
B3 (SH3RF1 RING domain): 0
B4 (UBOX5 RING domain): 0
B5 (RNF19A RING domain): 0
AVPSGLEENLCKICMDSPIDCVLLECGHMVTCTKCGKRMNECPICRQYVIRAVHVF (RFFL RING domain (UniProt Q8WZ73)): 0
B6 (DTX2 RING domain): 0
B7 (SYTL4 RING domain): 0

Sample 4 — technique: protein binding microarray; form: double-stranded DNA, one strand shown; matrix: in vitro; concentration: not given; reference: not given; direction: higher = stronger binding; measurement: E-score
Target: Histone acetyltransferase KAT6A, winged helix 2, GST fusion (KAT6A, Homo sapiens, UniProt Q92794, residues 85-181)
Notes: 8-mer, flanks averaged, mean of 2 arrays, mostly near background
Residues (chain): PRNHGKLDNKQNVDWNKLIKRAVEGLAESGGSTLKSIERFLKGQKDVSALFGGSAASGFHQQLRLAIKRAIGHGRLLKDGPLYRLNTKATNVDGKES
CCCACTAC: -0.021
GCTAGTTA: -0.0883
CGCGGCCA: 0.231
GCAAAGGA: 0.0735
TAAAGTCA: -0.0804
AATCGTCC: -0.131
CTAAAAGC: 0.0264
AGGTGACG: -0.0537
GCCTATAA: -0.171
AAGGAACG: -0.00951
AGATCTGC: 0.137
ATCTCGGA: 0.168
CCTAGTCA: -0.198
TTCATGAA: -0.00292
AAAAGGAT: 0.0105
GGAAGTGA: 0.0993
CTTAATGC: -0.0382
ACTCAACG: -0.0771

Sample 5 — technique: RNA Bind-n-Seq; form: RNA; matrix: in vitro; concentration: 100 nM; reference: input RNA pool; direction: higher = stronger binding; measurement: bound/input enrichment
Target: RING finger protein unkempt homolog, zinc fingers 1-6, SBP tag (UNK, Homo sapiens, UniProt Q9C0B0, residues 30-357)
Chain of UniProt Q9C0B0 (30-357, looked up): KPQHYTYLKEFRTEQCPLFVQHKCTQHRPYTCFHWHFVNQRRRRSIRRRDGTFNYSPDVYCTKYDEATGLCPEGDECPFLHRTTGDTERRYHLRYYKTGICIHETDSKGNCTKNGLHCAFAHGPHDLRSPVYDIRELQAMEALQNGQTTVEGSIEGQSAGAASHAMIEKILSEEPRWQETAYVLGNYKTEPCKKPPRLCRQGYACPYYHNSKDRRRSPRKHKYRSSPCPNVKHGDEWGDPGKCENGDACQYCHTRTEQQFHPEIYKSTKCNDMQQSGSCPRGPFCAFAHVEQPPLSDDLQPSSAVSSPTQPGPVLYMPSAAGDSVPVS
Notes: RNA with constant flanks, vertebrate orthologous sites, ends assumed
Constant ends, left off below: GGGAGUUCUACAGUCCGACGAUC … CAACAGAGGAUUGAGCAUCA
CUGAAGCUUUGUGUUUGGCUGCACCUGCAUAAGCUGCUACAAAUAGAAUAAAGAACUUCAUAGCCUGUAUCUAUCAUUUAGAUGCAUGGGAAAAUGGGCUUUGCACACAGUGGGUUUGGA: 0.834 ratio
AAUGACUUUCUGCUCCAUUAAAAAAAUGAAAAAUAGUCCCCAAAAUAUAAAACUUCUAAAUAGCUAUUUUUGAAAUUAAAUGUUUAGAUUUUGUAAAUCAGCUGUUGCCACUACACAACU: 0.911 ratio
ACGUUUUGACAUCAAGUUCACCAUCAAAACCAAGUCAUGACCUUAGCUGUGAAAAUAGCUUUUAUUCUGCCCAUUUCAAAACACAAUAAUUUAGACGAAUAAACGGAGACGAGUGCAAAU: 1.08 ratio
GUGUUUUGUACAGGGCAUCAUCCUCUGUACAAGUUUGUGGUUAUAAAAUAAUUAGUAAAACAGCUUACAUUUGUAUUUAUUUUCUAGUCCAUACUUCUGUACCCCGUUUUUUUCUCCCUU: 0.636 ratio
UUCAGGCACAACUGACUGGUUCACAGAAUUCCUUACAUAGUUACCUAUCAAAUGCAAGUGUAGUUAAUUUUCAGGAAACAACCAGGCAGUCCUCUUUAUCCUGUAGCUCUAUUGGAGAUU: 1.12 ratio
UUUACAAUCUACUUAAGUAGGUUUUUACAUACCACAUUAAGCCUUCAUUUUACAUAUUUACAGCUUUUCUGUUUUCCAUAUGAAAUCAAAGAAUUUAAUGCUCAAAGUUAAAUGUGGUCU: 0.246 ratio
CUCCCUCCCAGGACUGAGCAGUGGGGCCUGGGCCCACUGGCCACAUCAGCCAGGCCAUUUUAGCUCCUUUUUUUUUUUUUUUUUAAACCGUGACCUUGUUAUCCUGUAUAUAAGUGGAGA: 2.96 ratio
GUACUACCUGUGCGAAUCUCACAACACUGAAUGCAAAGUAGCAAUUUUCAUAGUCACAGUUAGGUAGCUUUAGGGCAGUAUUGCCAUGGUUUUACUCAUAUGCAGGUUUUGAAAAUGUAC: 1.17 ratio

A few entries again (sample 2):
ASKSRVQMFKDDP [L8M]: -0.00473
ASKSRVQLFKDSP [D12S]: -0.0141
ASKSRVQLFKDYP [D12Y]: 0.626
AVKSRVQLFKDDP [S2V]: 0.0676
ASISRVQLFKDDP [K3I]: 0.0887
ASKSRVQLFKDWP [D12W]: -0.135
ASKSRVQLFNDDP [K10N]: 0.0728
ASKSRVQLFYDDP [K10Y]: -0.35
ATKSRVQLFKDDP [S2T]: -0.0197
